Experimental data from different studies.
Each numbered part is a random draw from the data of one study; scales do not carry over between parts. ± marks the error that the study gave.
UniProt Q06187, sequence (whole entry, looked up): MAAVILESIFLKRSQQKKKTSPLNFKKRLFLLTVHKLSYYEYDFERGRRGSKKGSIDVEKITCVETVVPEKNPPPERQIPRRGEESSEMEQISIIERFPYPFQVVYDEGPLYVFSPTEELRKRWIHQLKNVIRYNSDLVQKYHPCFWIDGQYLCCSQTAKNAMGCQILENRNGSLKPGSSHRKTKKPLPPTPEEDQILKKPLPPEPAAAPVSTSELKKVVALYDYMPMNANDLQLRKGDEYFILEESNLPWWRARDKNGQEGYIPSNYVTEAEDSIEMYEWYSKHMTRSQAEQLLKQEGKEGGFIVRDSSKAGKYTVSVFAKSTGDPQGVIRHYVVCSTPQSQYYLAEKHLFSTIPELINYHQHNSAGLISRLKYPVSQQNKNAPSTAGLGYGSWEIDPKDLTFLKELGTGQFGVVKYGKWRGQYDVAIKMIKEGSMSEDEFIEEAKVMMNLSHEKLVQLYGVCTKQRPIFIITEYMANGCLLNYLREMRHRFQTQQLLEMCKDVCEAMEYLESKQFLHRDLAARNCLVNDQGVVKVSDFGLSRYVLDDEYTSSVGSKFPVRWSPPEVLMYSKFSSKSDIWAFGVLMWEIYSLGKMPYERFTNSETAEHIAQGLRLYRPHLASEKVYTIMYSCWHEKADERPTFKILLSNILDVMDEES

Sample 1
Target: Sodium-dependent neutral amino acid transporter B(0)AT1 (SLC6A19, Homo sapiens, UniProt Q695T7)
UniProt Q695T7, sequence (whole entry, looked up): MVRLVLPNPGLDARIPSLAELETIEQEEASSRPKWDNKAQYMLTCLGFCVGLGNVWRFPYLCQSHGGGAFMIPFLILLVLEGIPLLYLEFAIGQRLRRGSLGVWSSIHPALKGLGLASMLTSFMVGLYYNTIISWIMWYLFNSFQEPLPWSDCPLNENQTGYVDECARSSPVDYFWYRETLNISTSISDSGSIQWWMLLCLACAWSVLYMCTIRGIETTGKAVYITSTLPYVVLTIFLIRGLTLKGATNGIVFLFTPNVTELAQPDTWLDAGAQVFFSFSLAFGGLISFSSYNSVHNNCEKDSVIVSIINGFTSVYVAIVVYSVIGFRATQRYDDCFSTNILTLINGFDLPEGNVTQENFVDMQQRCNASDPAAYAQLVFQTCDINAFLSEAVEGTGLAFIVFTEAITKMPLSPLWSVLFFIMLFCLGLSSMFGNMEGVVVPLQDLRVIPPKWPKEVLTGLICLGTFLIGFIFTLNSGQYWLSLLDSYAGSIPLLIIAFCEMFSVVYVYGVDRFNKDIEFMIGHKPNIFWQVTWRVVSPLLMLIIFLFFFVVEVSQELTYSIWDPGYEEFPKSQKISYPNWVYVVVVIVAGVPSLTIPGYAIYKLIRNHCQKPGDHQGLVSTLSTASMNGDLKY
Method: FLIPR membrane potential
Cell line: CHO-BC
Concentration: concentration not given
Baseline: 100 µM cinromide set to 0
The remaining activity of `CCCNC(=O)COc1cc(C)c(Cl)c(C)c1` is reported as 16.4%.
`Cc1cc(OCC(=O)NCC(C)C)cc(C)c1Cl` gave a remaining activity of 83.8%.
For `CC(C)NC(=O)COc1ccc(I)cc1`, the remaining activity was 16.9%.
`CCCCCCNC(=O)COc1cc(C)c(Cl)c(C)c1` has a remaining activity of 110%.
With `Cc1cc(OCC(=O)SC(C)C)cc(C)c1Cl` the remaining activity was 131%.
For `Cc1cc(OCC(=O)NCCc2ccccc2)cc(C)c1Cl`, the remaining activity was 95.3%.
With `Cc1cc(OCC(=O)NCCO)cc(C)c1Cl` the remaining activity was 109%.
`CC(C)NC(=O)COc1ccc(Br)cc1` gave a remaining activity of 15.6%.
The remaining activity of `Cc1cc(OCC(=O)NCCCO)cc(C)c1Cl` is reported as 103%.
`Cc1cc(OCC(=O)NC(C)C)cc(C)c1Cl` gave a remaining activity of 37.9%.
`CON(C)C(=O)COc1cc(C)c(Cl)c(C)c1` gave a remaining activity of 109%.
For `Cc1cc(OCC(=O)NCc2ccccc2)cc(C)c1Cl`, the remaining activity was 102%.
With `Cc1cc(OCC(=O)Nc2ccccc2)cc(C)c1Cl` the remaining activity was 109%.
With `Cc1cc(OCC(=O)CC(C)C)cc(C)c1Cl` the remaining activity was 107%.

Sample 2
Structure (SMILES): CCN1/C(=C/C=C2\CCCC(/C=C/C3=[N+](CC)c4ccccc4C3(C)C)=C2NCCCCCCCCN2CCC(Nc3nc4ccccc4n3Cc3ccc(F)cc3)CC2)C(C)(C)c2ccccc21
Cell line: U-87 MG
Concentration: concentration not given
Baseline: DMSO
It gave -2.14 for “log2 fold change” (measured: ENPP1 mRNA).
It gave -1.26 for “log2 fold change” (measured: CDH24 mRNA).
For measured: PDE4B mRNA: “log2 fold change” read -2.
measured: MORN3 mRNA — “log2 fold change”: 1.86.
The “log2 fold change” was -1.06 (measured: SLC22A23 mRNA).
The “log2 fold change” was -2.45 (measured: ERMN mRNA).
For measured: SPIRE1 mRNA: “log2 fold change” read 1.05.
For measured: MSX1 mRNA: “log2 fold change” read 1.48.
It gave 1.7 for “log2 fold change” (measured: ABCA13 mRNA).
measured: BACH1 mRNA — “log2 fold change”: 0.966.
It gave 1.03 for “log2 fold change” (measured: POC1B mRNA).
measured: ANK2 mRNA — “log2 fold change”: 0.926.
measured: TBC1D4 mRNA — “log2 fold change”: -1.42.
For measured: COMMD4 mRNA: “log2 fold change” read -0.84.
measured: WDR45 mRNA — “log2 fold change”: 0.853.
For measured: DCBLD2 mRNA: “log2 fold change” read -0.989.

Sample 3
SMILES: C[C@@H]1CN(c2ccc(-c3cc(C(=O)NCCOCCOCCOCCOCCOCCOCCNC(=O)/C=C/c4[nH]cc(C(=O)N[C@@H](CC(N)=O)c5ccc(F)c(Cl)c5)c4-c4ccc(Cl)cc4F)ccc3F)cc2NC(=O)c2ccc(F)cc2C(F)(F)F)C[C@H](C)N1C
Observed: thermal unfolding
Method: differential scanning fluorimetry
Concentration: 5.5 µM
Direction: higher = more unfolded
DCAF1: DDB1- and CUL4-associated factor 1 (DCAF1, Homo sapiens, UniProt Q9Y4B6)
UniProt Q9Y4B6, sequence (whole entry, looked up): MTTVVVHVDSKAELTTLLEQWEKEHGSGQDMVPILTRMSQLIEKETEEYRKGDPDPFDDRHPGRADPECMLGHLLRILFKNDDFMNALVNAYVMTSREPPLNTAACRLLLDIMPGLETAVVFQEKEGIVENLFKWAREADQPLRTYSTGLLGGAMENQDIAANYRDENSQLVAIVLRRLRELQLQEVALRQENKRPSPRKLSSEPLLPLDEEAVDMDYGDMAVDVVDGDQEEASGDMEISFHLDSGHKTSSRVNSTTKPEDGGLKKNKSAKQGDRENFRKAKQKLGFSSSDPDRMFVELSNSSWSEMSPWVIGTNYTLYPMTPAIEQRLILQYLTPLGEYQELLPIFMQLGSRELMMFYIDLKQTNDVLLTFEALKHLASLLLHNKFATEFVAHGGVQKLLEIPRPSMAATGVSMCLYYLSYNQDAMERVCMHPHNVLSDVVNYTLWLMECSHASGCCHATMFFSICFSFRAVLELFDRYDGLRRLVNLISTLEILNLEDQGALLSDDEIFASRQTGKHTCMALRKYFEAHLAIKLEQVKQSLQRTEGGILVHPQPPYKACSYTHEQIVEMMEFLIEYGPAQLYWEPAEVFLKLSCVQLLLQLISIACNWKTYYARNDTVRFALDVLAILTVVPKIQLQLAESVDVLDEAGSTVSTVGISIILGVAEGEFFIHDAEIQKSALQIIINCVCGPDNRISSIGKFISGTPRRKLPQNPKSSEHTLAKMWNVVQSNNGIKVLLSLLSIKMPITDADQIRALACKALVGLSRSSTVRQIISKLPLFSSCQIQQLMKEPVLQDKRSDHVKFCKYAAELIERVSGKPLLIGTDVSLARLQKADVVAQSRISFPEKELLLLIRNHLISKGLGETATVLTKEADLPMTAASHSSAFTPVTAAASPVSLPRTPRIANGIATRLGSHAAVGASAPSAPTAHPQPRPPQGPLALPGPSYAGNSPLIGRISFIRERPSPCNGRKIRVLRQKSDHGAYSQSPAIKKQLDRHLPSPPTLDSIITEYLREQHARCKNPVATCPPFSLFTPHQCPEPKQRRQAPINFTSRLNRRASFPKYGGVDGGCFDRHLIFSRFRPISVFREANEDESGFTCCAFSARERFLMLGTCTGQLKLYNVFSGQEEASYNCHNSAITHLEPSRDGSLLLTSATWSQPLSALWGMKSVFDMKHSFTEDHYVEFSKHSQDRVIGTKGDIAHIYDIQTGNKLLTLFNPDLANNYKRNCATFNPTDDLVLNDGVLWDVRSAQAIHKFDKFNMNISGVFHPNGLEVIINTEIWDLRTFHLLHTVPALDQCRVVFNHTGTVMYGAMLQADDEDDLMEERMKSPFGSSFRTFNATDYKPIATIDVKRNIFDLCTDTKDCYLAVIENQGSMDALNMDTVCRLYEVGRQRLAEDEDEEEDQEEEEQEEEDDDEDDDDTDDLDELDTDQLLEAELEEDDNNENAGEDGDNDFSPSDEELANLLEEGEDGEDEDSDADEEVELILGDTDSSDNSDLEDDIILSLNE
WDR5: WD repeat-containing protein 5 (WDR5, Homo sapiens, UniProt P61964)
The “SYPRO Orange fluorescence” was 52000 a.u. (DCAF1; 66.61 °C).
The “SYPRO Orange fluorescence” was 20800 a.u. (DCAF1; 52.2 °C).
The “SYPRO Orange fluorescence” was 10100 a.u. (DCAF1; 35.6 °C).
DCAF1; 82.01 °C — “SYPRO Orange fluorescence”: 38500 a.u.
DCAF1; 88.01 °C — “SYPRO Orange fluorescence”: 33900 a.u.
It gave 16700 a.u. for “SYPRO Orange fluorescence” (WDR5; 51 °C).
It gave 16800 a.u. for “SYPRO Orange fluorescence” (WDR5; 53.81 °C).
The “SYPRO Orange fluorescence” was 14900 a.u. (WDR5; 46.2 °C).
It gave 23500 a.u. for “SYPRO Orange fluorescence” (DCAF1; 53.61 °C).
DCAF1; 28.2 °C — “SYPRO Orange fluorescence”: 8000 a.u.
The “SYPRO Orange fluorescence” was 15800 a.u. (WDR5; 48.6 °C).

Single results of other studies
The residence time of `CC(C)/C=C(\C#N)C(=O)N1CCC[C@@H](n2nc(-c3ccc(Oc4ccccc4)cc3)c3c(N)ncnc32)C1` is reported as 5460 ± 360 min (Tyrosine-protein kinase BTK (BTK, Homo sapiens, UniProt Q06187); fluorescence competition; room temperature).

For quick reference, copied from above (sample 1):
The remaining activity of `CCCNC(=O)COc1cc(C)c(Cl)c(C)c1` is reported as 16.4%.
`Cc1cc(OCC(=O)NCC(C)C)cc(C)c1Cl` gave a remaining activity of 83.8%.
For `CC(C)NC(=O)COc1ccc(I)cc1`, the remaining activity was 16.9%.
`CCCCCCNC(=O)COc1cc(C)c(Cl)c(C)c1` has a remaining activity of 110%.
With `Cc1cc(OCC(=O)SC(C)C)cc(C)c1Cl` the remaining activity was 131%.
For `Cc1cc(OCC(=O)NCCc2ccccc2)cc(C)c1Cl`, the remaining activity was 95.3%.
